Results of several laboratories.
Numbered parts are unrelated; each lists some results of a single study.

Sample 1 — organism: Sarcocystis neurona; observed: parasite growth; tested at: 10 µM
CC(=O)CCCCn1cnc2c1c(=O)n(C)c(=O)n2C gave an inhibition of -20.2%.
CC[C@@]1(O)C(=O)OCc2c1cc1n(c2=O)Cc2cc3c(CN(C)C)c(O)ccc3nc2-1 has an inhibition of -25.3%.
With COc1ccc2[n-]c([S+]([O-])Cc3ncc(C)c(OC)c3C)nc2c1.COc1ccc2[n-]c([S+]([O-])Cc3ncc(C)c(OC)c3C)nc2c1.[Mg+2] (stereo not drawn) the inhibition was 27.6%.
For COC(=O)C1=C(C)NC(C)=C(C(=O)OC(C)C)C1c1cccc2nonc12 (stereo not drawn), the inhibition was -42.2%.
CN1C(=O)CC[C@H]1c1cccnc1 has an inhibition of -24%.
For O=C1[C@H](CC[C@H](O)c2ccc(F)cc2)[C@@H](c2ccc(O)cc2)N1c1ccc(F)cc1, the inhibition was 24.2%.
For CC[C@]1(O)C[C@H]2CN(CCc3c([nH]c4ccccc34)[C@@](C(=O)OC)(c3cc4c(cc3OC)N(C=O)[C@H]3[C@@](O)(C(=O)OC)[C@H](OC(C)=O)[C@]5(CC)C=CCN6CC[C@]43[C@@H]65)C2)C1, the inhibition was 2.5%.
CN1CCN(C2=Nc3ccccc3Oc3ccc(Cl)cc32)CC1 has an inhibition of -19.9%.

Sample 2 — observed: enzyme activity; action: inhibitor; tested at: 0.5 µM; relative to: control
Target: Serine/threonine-protein kinase Nek7 (NEK7, Homo sapiens, UniProt Q8TDX7)
Target sequence (Q8TDX7 1-302): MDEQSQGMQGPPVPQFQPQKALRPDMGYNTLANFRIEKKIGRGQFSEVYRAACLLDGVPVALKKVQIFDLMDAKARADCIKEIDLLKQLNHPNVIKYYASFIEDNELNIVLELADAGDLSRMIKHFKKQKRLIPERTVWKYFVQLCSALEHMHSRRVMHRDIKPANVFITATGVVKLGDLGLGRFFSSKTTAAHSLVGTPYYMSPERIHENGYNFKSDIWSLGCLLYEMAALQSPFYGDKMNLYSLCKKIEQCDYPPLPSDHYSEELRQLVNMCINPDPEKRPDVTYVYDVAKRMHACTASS
For Cn1c2ccccc2c2c3c(c4c5ccccc5n(CCC#N)c4c21)CNC3=O, the remaining activity was 97%.
For Nc1[nH]nc2nc3ccccc3nc12, the remaining activity was 93.1%.
For COc1ccc(C(=O)Nc2sc3c(c2C(N)=O)CCCC3)cc1OC, the remaining activity was 99%.
The remaining activity of Cc1ccc(NC(=O)c2ccc(CN3CCN(C)CC3)cc2)cc1Nc1nc(-c2cccnc2)cs1 is reported as 96.3%.
With Nc1ncnc2n[nH]c(Nc3ccc(F)cc3)c12 the remaining activity was 97%.
For O=c1c2ccccc2[nH]c(=S)n1CCN1CCC(=C(c2ccc(F)cc2)c2ccc(F)cc2)CC1, the remaining activity was 100%.
CN(C)c1ccc(C=C2C(=O)Nc3ccccc32)cc1 has a remaining activity of 102%.
Oc1ccc(-c2nc(-c3ccncc3)c(-c3ccc(F)cc3)[nH]2)cc1 gave a remaining activity of 103%.
O=C(CCCc1ccc(-c2ccccc2F)cc1)Nc1ccc(O)cc1 has a remaining activity of 97.3%.
CC(C)[C@H](CO)Nc1nc(Nc2cc(N)cc(Cl)c2)c2ncn(C(C)C)c2n1 has a remaining activity of 89%.
For O=C(Nc1cccc(Nc2cc(Nc3cccc(C(F)(F)F)c3)ncn2)c1)C1CC1, the remaining activity was 97.8%.
For C#Cc1cccc(Nc2ncnc3cc(OCCOC)c(OCCOC)cc23)c1, the remaining activity was 97.4%.
With COc1cc2ncnc(Nc3ccc(Oc4ccccc4)cc3)c2cc1OC the remaining activity was 103%.
O=C1NC(=O)C(c2cn(CCCn3ccnc3)c3ccccc23)=C1Nc1ccccc1 has a remaining activity of 102%.
O=S(=O)(c1cccc2cnccc12)N1CCCNCC1 gave a remaining activity of 97.5%.
With Cc1cccc(-c2[nH]c(C(C)(C)C)nc2-c2ccc3c(c2)OCO3)n1 the remaining activity was 106%.

Sample 3 — host: human; matrix: microsomes or S9; tested at: 2 µM; time: 0.5 h
With CCN(CC)S(=O)(=O)c1ccc(NC(=O)C(C)N(c2ccc(C)c(C)c2)S(C)(=O)=O)cc1 (stereo not drawn) the remaining compound was 79.4%.
With CCOC(=O)c1cnc2nc(C3CCC3)nn2c1C the remaining compound was 5.83%.
With c1ccc(OCC2CN(c3ccc4nnc(-c5ccsc5)n4n3)CCO2)cc1 (stereo not drawn) the remaining compound was 49.8%.
With CN(C)c1ccc(C(O)CF)c(S(N)(=O)=O)n1 (stereo not drawn) the remaining compound was 96.7%.
The remaining compound of CN1CCN(c2ccc(C(=O)Nc3c[nH]c4ncnc(-c5cnn(C6CCN(C(=O)OC(C)(C)C)CC6)c5)c34)cc2)CC1 is reported as over 100%.
With COc1ccc(-n2c3c(c4nc(OC)ccc42)CCC3)cc1 the remaining compound was 6.06%.
The remaining compound of O=C(Nc1ccncc1)c1nn(Cc2ccccc2)c2c1CCc1ccccc1-2 is reported as 67.1%.
CCC(C)c1ccc(-c2c(C)sc(N)c2C#N)cc1 (stereo not drawn) gave a remaining compound of 39.7%.

Other studies, line by line
For O=C(NCCN1CCOCC1)c1ccc2c(c1)C(=O)c1ccc(Nc3ccc(F)c(NC(=O)c4ccccc4)c3)cc1CC2, “tubulin stain change” read 91% (HEK293T; high-content imaging; concentration not given, 24 h, recommended concentration).

Some of these lines once more (sample 2):
For O=C(Nc1cccc(Nc2cc(Nc3cccc(C(F)(F)F)c3)ncn2)c1)C1CC1, the remaining activity was 97.8%.
With Cc1cccc(-c2[nH]c(C(C)(C)C)nc2-c2ccc3c(c2)OCO3)n1 the remaining activity was 106%.
For Cn1c2ccccc2c2c3c(c4c5ccccc5n(CCC#N)c4c21)CNC3=O, the remaining activity was 97%.
O=C1NC(=O)C(c2cn(CCCn3ccnc3)c3ccccc23)=C1Nc1ccccc1 has a remaining activity of 102%.
With Nc1ncnc2n[nH]c(Nc3ccc(F)cc3)c12 the remaining activity was 97%.
